Published values of several laboratories.
Lines come from different studies, so protocols differ. Values joined by “and” are separate records of one study, mostly repeats; a detail may differ. Numbers after ± are the reported error.
AKT1: RAC-alpha serine/threonine-protein kinase (AKT1, Homo sapiens, UniProt P31749)
AKT1 S473D: RAC-alpha serine/threonine-protein kinase (AKT1, Homo sapiens, UniProt P31749, S473D)

target	test	system	setting	scale	quantity	result	SMILES
AKT1	enzyme activity, inhibitor		10 µM		inhibition	1%	NC(=O)C[C@H]1CCc2sc3ncnc(O[C@H]4CC[C@H](N5CCOCC5)CC4)c3c21
AKT1	enzyme activity, inhibitor		10 µM		activity vs control	111%	O=C(Cc1ccc(OCc2ccccc2)cc1)NC1(C(=O)O)CCN(C(=O)c2ccc(-c3cccc(Cl)c3)cc2)CC1
AKT1	binding, competition with immobilised ligand		1 µM		remaining binding	100%	Nc1ncc2c(n1)-c1c([nH]c3ccc(C4=CCOCC4)cc13)CCC2
AKT1 S473D	enzyme activity		10 µM		remaining activity	86%	Cc1cccc(-c2ccc3nc(NC(=O)C4CCOCC4)nn3c2)c1
AKT1	cell-free assay, competition with immobilised ligand		50 nM		remaining binding	97%	CN1CCN(Cc2ccc(NC(=O)c3cccc(C#Cc4cnc(N)c5ncccc45)c3)cc2C(F)(F)F)CC1
RAC-alpha serine/threonine-protein kinase, PH domain (AKT1, Homo sapiens, UniProt P31749)	PIP3 binding to PH domain, SPR		200 µM		inhibition	64 ± 7%	O=[N+]([O-])c1ccc(Cn2cc(Cn3cc(CO)nn3)nn2)cc1
AKT1	enzyme activity, inhibitor, radiometric		10 µM		activity vs control	104%	O=C(O)CCC(=O)c1cccc(NS(=O)(=O)c2c[nH]c3ncccc23)c1
AKT1	enzyme activity		1 µM	relative to: DMSO control	remaining activity	107%	Nc1ncc(-c2cc(-c3cnn(CC(F)(F)F)c3)ncc2F)nc1C(=O)NC1CNCC(F)C1 (centres unmarked)
AKT1	enzyme activity, inhibitor		10 µM		remaining activity	89%	Nc1nc(Nc2ccccc2)sc1C(=O)c1ccccc1
AKT1	binding, competition with immobilised ligand		1 µM		remaining binding	89%	CNC(=O)C1CCN(c2cc(C)c(F)cc2NC(=O)c2ccc(-c3cc(O)ccc3C)c(C)c2)CC1
AKT1	enzyme activity, inhibitor		1 µM		remaining activity	122%	O=c1c(-c2ccc(Cl)c(CN3CCOCC3)c2)coc2cc(O)ccc12
AKT1	binding, competition with immobilised ligand		10 µM		remaining binding	83%	CNS(=O)(=O)Nc1nccc(Cc2c(C)c3ccc(Oc4ncccc4F)cc3oc2=O)c1F
AKT1	enzyme activity		100 nM, human enzyme, added: 10 µM ATP	relative to: untreated	remaining activity	76%	O=C=[N][Ru-4]123([n]4c5ccc(O)cc5c5c6c(c7cc(F)c[n+]1c7c54)C(=O)NC6=O)[S+]1CC[S+]2CC[S+]3CC1 (centres unmarked)
AKT1	binding, competition with immobilised ligand		3 µM		remaining binding	96%	COc1c(Cl)cccc1Nc1c(-c2ccncc2C#C[C@@]2(C)CCCN2C(=O)/C=C/CN(C)C)[nH]c2c1C(=O)NCC2
AKT1	enzyme activity, inhibitor		1 µM		activity vs control	69%	CNC(=O)C[C@H](Cc1ccc(C#N)cc1)NC(=O)c1cc(-c2ccc(CN[C@H](C)c3ccc(C)cc3)o2)ccc1Cl
AKT1	inhibitor		1 µM	relative to: control	remaining activity	100%	COc1cc(Nc2nc(C)cc(-c3cnn4nc(OC)ccc34)n2)cc(C(F)(F)F)c1
AKT1	kinobead competition pulldown	HEK293/HCT116 lysate mixture	10 µM, 1 h, 4 °C	lower = stronger competition	log2 LFQ intensity	19.5 and 20.8 and 21.6 and 21.5	N[C@H]1CC[C@H](Nc2nccc(-c3cccnc3Oc3ccc(NC(=O)NC4CC4)c4ccccc34)n2)CC1
AKT1	enzyme activity, inhibitor		0.1 µM		inhibition	0%	C=CC(=O)Nc1cccc(-c2cnc3[nH]cc(C(=O)NC(C)(C)C)c3n2)c1
AKT1	enzyme activity, inhibitor		10 µM		inhibition	-4%	Cc1cccc(O[C@H]2CCC[C@@H](C(C)CNCc3ccncc3)C2)c1 (relative stereo)
AKT1	enzyme activity, inhibitor		1 µM		inhibition	30%	Cc1nc2c(F)cc(-c3nc(Nc4ccc(CNC(=O)CCCCCCC(=O)NO)cc4)ncc3F)cc2n1C(C)C
AKT1	inhibitor, KiNativ profiling	biochemical	2 µM		inhibition	10.1%	C=CC(=O)Nc1cc(-c2nn(C3CCN(CCNC(=O)[C@H](C)CCC45CC6CC(CC(C6)C4)C5)CC3)c3ncnc(N)c23)ccc1Oc1ccccc1
AKT1	kinase activity, KinaseProfiler		0.03 µM, species human	relative to: control	remaining activity	87%	COc1ccc(NC(=O)Nc2ccc3c(c2)C(=O)N(C(C)CO)CC(C)C(CN(C)Cc2ccc4c(c2)OCO4)O3)cc1 (centres unmarked)
AKT1 S473D	enzyme activity		10 µM		remaining activity	99%	Cc1cccc(-c2ccc3nc(NC(=O)C4CCCCC4)nn3c2)c1
AKT1	KINOMEscan		1 µM	relative to: DMSO control	remaining binding	100%	C=CC(=O)N1CCc2ccc(-n3c(=O)ccc4cnc5ccc(-c6cnn(C)c6)cc5c43)cc21
AKT1	binding, competition with immobilised ligand		0.2 µM		inhibition	-1.36%	COc1ccc(O)cc1-c1c[nH]c2ncc(-c3cncc(C(=O)N(C)C)c3)cc12
AKT1	cell-free assay, competition with immobilised ligand		1 µM		remaining binding	96%	C=CC(=O)N1CCCC(n2c(=O)c3ncccc3n(Cc3ccc(Oc4ccccc4)cc3)c2=O)C1 (centres unmarked)

For quick reference, copied from above:
target	test	system	setting	scale	quantity	result	SMILES
AKT1	binding, competition with immobilised ligand		10 µM		remaining binding	83%	CNS(=O)(=O)Nc1nccc(Cc2c(C)c3ccc(Oc4ncccc4F)cc3oc2=O)c1F
RAC-alpha serine/threonine-protein kinase, PH domain (AKT1, Homo sapiens, UniProt P31749)	PIP3 binding to PH domain, SPR		200 µM		inhibition	64 ± 7%	O=[N+]([O-])c1ccc(Cn2cc(Cn3cc(CO)nn3)nn2)cc1
AKT1	enzyme activity, inhibitor		10 µM		inhibition	-4%	Cc1cccc(O[C@H]2CCC[C@@H](C(C)CNCc3ccncc3)C2)c1 (relative stereo)
